Results from different studies.
Parts stem from different laboratories: compare values within a part only. Values joined by “and” are separate records of one study, mostly repeats; a detail may differ.
Chain of UniProt Q8NE63 (whole entry, looked up): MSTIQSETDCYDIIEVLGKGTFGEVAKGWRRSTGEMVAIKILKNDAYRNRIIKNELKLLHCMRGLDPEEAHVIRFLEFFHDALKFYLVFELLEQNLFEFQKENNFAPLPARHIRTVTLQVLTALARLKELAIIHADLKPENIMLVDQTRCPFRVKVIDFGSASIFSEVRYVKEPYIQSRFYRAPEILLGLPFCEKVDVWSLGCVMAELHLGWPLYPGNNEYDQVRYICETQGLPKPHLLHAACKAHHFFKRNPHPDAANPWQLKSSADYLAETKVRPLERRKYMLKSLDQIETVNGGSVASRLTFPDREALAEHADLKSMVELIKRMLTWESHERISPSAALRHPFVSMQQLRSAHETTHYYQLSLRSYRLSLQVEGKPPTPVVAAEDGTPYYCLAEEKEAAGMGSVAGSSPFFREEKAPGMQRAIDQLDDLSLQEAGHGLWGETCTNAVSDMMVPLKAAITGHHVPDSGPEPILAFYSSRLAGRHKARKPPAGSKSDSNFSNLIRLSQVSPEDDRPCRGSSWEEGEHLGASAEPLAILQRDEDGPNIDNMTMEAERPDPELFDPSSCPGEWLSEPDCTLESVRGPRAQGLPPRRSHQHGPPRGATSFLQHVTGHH
Chain of UniProt Q9HC98 (whole entry, looked up): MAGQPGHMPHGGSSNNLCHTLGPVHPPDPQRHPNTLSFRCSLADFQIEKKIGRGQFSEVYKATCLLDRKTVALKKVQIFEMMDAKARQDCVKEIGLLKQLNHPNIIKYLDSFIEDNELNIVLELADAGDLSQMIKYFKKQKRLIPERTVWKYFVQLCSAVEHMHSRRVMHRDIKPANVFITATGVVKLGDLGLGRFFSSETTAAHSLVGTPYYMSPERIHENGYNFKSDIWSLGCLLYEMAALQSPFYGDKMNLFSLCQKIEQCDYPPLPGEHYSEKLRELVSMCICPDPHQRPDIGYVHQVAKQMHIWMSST
Chain of UniProt O75582 (whole entry, looked up): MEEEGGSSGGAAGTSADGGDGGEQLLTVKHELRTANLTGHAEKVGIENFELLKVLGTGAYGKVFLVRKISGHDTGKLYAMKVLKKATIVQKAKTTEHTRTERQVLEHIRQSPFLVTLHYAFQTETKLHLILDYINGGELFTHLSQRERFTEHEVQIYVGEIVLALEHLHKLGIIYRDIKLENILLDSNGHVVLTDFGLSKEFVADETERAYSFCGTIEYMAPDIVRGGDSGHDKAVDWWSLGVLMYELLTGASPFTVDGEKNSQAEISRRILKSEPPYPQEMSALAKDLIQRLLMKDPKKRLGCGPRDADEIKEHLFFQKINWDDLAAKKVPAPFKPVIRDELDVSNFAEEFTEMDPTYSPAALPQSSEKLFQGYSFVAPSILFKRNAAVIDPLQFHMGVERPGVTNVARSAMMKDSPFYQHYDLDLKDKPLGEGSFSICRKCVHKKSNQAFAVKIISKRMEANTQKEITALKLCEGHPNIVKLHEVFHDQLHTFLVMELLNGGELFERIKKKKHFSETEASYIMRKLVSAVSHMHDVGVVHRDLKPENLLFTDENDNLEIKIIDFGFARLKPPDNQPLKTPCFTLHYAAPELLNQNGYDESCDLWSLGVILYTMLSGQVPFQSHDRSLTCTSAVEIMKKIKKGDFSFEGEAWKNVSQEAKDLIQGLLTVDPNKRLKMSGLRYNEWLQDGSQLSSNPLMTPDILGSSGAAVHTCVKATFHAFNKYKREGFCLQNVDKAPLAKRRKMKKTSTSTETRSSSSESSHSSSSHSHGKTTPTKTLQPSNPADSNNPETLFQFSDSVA
Chain of UniProt O43781 (whole entry, looked up): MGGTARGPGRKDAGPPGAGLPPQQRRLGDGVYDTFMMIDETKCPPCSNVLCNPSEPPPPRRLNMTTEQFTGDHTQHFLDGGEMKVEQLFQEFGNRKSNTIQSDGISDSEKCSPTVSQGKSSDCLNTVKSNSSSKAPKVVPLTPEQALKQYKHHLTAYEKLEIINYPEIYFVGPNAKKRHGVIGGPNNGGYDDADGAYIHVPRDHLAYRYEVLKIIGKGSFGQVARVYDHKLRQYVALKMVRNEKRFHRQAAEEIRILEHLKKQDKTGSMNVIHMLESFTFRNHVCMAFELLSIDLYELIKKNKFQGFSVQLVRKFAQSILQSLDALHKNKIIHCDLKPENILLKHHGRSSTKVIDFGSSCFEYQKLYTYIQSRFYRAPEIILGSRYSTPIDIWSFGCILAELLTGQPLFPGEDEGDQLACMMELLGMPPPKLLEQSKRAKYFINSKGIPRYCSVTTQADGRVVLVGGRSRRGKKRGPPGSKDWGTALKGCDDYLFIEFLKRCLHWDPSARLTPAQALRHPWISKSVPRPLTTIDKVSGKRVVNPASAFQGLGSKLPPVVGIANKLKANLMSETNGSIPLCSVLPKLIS
Chain of UniProt Q9H2X6 (whole entry, looked up): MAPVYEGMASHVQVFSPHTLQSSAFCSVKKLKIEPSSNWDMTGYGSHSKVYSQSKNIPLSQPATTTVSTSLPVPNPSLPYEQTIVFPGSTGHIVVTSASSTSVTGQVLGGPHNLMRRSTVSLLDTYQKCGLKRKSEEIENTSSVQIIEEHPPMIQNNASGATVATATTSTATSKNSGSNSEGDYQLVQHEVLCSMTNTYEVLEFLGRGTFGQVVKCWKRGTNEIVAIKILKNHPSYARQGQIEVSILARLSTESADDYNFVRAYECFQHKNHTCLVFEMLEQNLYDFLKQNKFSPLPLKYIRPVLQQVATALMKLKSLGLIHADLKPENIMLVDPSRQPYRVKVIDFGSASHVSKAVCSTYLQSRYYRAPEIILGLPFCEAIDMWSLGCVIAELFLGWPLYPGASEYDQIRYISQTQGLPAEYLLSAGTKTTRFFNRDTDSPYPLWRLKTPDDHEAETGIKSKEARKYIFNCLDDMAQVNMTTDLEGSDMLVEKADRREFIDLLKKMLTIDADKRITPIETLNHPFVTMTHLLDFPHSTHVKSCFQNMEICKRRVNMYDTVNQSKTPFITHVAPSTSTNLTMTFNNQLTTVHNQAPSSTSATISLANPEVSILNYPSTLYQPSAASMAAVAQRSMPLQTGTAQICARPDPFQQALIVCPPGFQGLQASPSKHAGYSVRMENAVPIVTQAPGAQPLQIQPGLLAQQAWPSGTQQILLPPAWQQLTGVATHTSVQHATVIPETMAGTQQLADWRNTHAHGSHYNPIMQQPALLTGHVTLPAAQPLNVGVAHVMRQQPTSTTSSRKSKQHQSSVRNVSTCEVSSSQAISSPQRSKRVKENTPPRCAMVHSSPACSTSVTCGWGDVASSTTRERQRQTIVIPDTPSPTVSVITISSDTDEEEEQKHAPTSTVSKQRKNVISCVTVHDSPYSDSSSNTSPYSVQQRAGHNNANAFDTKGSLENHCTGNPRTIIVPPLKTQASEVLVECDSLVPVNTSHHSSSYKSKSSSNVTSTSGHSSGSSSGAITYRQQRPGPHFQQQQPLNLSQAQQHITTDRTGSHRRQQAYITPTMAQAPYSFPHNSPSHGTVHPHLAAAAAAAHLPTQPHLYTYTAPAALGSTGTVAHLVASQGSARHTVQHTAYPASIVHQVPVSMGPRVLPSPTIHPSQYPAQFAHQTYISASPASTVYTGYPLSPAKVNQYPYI

Set 1
SMILES: Cc1c(NC(=O)c2cc(C(N)=O)nc3cc(F)ccc23)c(C(F)(F)F)nn1Cc1ccc(C#N)cc1
Effect on: cell-free assay
Method: competition with immobilised ligand
Tested at: 1 µM
Quantity: remaining binding
ALK tyrosine kinase receptor (ALK, Homo sapiens, UniProt Q9UM73, C1156Y): 98%
Receptor-type tyrosine-protein kinase FLT3 (FLT3, Homo sapiens, UniProt P36888, D835V): 100%
Insulin receptor-related protein (INSRR, Homo sapiens, UniProt P14616): 92%
Vascular endothelial growth factor receptor 2 (KDR, Homo sapiens, UniProt P35968): 80%
Serine/threonine-protein kinase WNK4 (WNK4, Homo sapiens, UniProt Q96J92): 0%
Cyclin-dependent kinase 15 (CDK15, Homo sapiens, UniProt Q96Q40): 100%
Platelet-derived growth factor receptor beta (PDGFRB, Homo sapiens, UniProt P09619): 87%
Receptor-type tyrosine-protein kinase FLT3 (FLT3, Homo sapiens, UniProt P36888, D835Y): 92%
Serine/threonine-protein kinase Nek6 (NEK6, Homo sapiens, UniProt Q9HC98): 100%
Ephrin type-B receptor 2 (EPHB2, Homo sapiens, UniProt P29323): 100%
Dual specificity protein kinase CLK2 (CLK2, Homo sapiens, UniProt P49760): 89%
Serine/threonine-protein kinase Nek7 (NEK7, Homo sapiens, UniProt Q8TDX7): 99%

Set 2
Compound: C=CCc1ccc(O)c(-c2ccc(O)c(CC=C)c2)c1
Target: Anoctamin-1 (ANO1, Homo sapiens, UniProt Q5XXA6, del476-501)
Chain of UniProt Q5XXA6 (whole entry, unmodified, looked up): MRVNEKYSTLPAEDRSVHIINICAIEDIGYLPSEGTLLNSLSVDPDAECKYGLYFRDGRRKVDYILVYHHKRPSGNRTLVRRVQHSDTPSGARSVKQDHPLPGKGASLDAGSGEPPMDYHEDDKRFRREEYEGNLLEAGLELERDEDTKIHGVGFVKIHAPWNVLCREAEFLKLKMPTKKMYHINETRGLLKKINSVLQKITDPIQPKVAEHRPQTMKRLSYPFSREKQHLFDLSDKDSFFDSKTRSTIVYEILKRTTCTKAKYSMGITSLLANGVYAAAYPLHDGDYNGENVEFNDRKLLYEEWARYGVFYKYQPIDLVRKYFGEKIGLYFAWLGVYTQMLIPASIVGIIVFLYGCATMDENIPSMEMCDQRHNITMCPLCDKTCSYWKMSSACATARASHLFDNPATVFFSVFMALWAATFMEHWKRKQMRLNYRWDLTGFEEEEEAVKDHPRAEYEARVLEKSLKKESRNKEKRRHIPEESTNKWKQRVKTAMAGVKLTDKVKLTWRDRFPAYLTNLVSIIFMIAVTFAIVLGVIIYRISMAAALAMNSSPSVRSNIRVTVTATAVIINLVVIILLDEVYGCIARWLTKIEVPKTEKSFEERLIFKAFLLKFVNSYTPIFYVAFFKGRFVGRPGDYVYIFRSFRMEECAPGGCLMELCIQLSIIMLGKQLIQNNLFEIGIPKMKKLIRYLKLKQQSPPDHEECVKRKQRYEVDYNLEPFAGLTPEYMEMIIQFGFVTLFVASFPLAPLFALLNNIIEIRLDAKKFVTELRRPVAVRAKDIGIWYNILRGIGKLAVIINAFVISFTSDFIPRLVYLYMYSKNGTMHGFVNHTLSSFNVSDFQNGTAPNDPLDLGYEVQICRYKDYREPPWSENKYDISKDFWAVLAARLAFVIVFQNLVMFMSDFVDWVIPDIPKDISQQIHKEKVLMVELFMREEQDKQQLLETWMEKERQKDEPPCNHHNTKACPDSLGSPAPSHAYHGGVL
Effect on: chloride current
Method: whole-cell patch clamp
Quantity: normalised current
100 µM, 20 mV, 300 nM free Ca2+: 0.0055 and 0.0058
3 µM, 0 mV, 300 nM free Ca2+: -0.0006
30 µM, 60 mV, 300 nM free Ca2+, together with: honokiol and magnolol 10 µM: 0.0347
3 µM, 20 mV, 300 nM free Ca2+, together with: honokiol and magnolol 10 µM: 0.0264
10 µM, 100 mV, 300 nM free Ca2+: 0.379 and 0.397
3 µM, 100 mV, 300 nM free Ca2+, together with: honokiol and magnolol 10 µM: 0.452
1 µM, 100 mV, 300 nM free Ca2+, together with: honokiol and magnolol 10 µM: 0.652
1 µM, -60 mV, 300 nM free Ca2+, together with: honokiol and magnolol 10 µM: -0.0818
30 µM, 80 mV, 300 nM free Ca2+: 0.0757 and 0.0721
100 µM, 60 mV, 300 nM free Ca2+: 0.0303 and 0.0318
1 µM, 60 mV, 300 nM free Ca2+: 0.419 and 0.44

Set 3
Structure (SMILES): Nc1ccc2ncnc(NCCc3ccc(Oc4ccccc4)cc3)c2c1
Effect on: enzyme activity
Mode: inhibitor
Tested at: 0.5 µM
Baseline: control
Quantity: remaining activity
Phosphorylase b kinase gamma catalytic chain, skeletal muscle/heart isoform (PHKG1, Homo sapiens, UniProt Q16816): 96.4%
MAP kinase-activated protein kinase 3 (MAPKAPK3, Homo sapiens, UniProt Q16644): 101%
3-phosphoinositide-dependent protein kinase 1 (PDPK1, Homo sapiens, UniProt O15530): 105%
Ephrin type-B receptor 4 (EPHB4, Homo sapiens, UniProt P54760): 104%
cAMP-dependent protein kinase catalytic subunit gamma (PRKACG, Homo sapiens, UniProt P22612): 110%
Dual specificity tyrosine-phosphorylation-regulated kinase 3 (DYRK3, Homo sapiens, UniProt O43781): 89.6%
Ephrin type-A receptor 4 (EPHA4, Homo sapiens, UniProt P54764): 98.5%
Homeodomain-interacting protein kinase 2 (HIPK2, Homo sapiens, UniProt Q9H2X6): 110%
Mitogen-activated protein kinase kinase kinase kinase 4 (MAP4K4, Homo sapiens, UniProt O95819): 99.2%
Serine/threonine-protein kinase 16 (STK16, Homo sapiens, UniProt O75716): 94.7%
Cyclin-dependent kinase 1, with cyclin B (CDK1, Homo sapiens, UniProt P06493): 96.3%
Cyclin-dependent kinase 6, with cyclin D3 (CDK6, Homo sapiens, UniProt Q00534): 100%
Ephrin type-B receptor 1 (EPHB1, Homo sapiens, UniProt P54762): 97.9%
Tyrosine-protein kinase ABL1 (ABL1, Homo sapiens, UniProt P00519): 89.7%
Calcium/calmodulin-dependent protein kinase type II subunit beta (CAMK2B, Homo sapiens, UniProt Q13554): 95.1%
Cyclin-dependent kinase 4, with cyclin D3 (CDK4, Homo sapiens, UniProt P11802): 109%
Ribosomal protein S6 kinase alpha-5 (RPS6KA5, Homo sapiens, UniProt O75582): 98.3%
Homeodomain-interacting protein kinase 4 (HIPK4, Homo sapiens, UniProt Q8NE63): 97.4%
Serine/threonine-protein kinase WNK3 (WNK3, Homo sapiens, UniProt Q9BYP7): 114%
Serine/threonine-protein kinase 17A (STK17A, Homo sapiens, UniProt Q9UEE5): 96.9%
Tyrosine-protein kinase Srms (SRMS, Homo sapiens, UniProt Q9H3Y6): 99.2%
Ribosomal protein S6 kinase alpha-6 (RPS6KA6, Homo sapiens, UniProt Q9UK32): 103%
Testis-specific serine/threonine-protein kinase 2 (TSSK2, Homo sapiens, UniProt Q96PF2): 94.5%
Tyrosine-protein kinase receptor UFO (AXL, Homo sapiens, UniProt P30530): 96.1%
Tyrosine-protein kinase Blk (BLK, Homo sapiens, UniProt P51451): 97.1%

Set 4
Target: Calcium/calmodulin-dependent protein kinase type II subunit alpha (CAMK2A, Homo sapiens, UniProt Q9UQM7)
Chain of UniProt Q9UQM7 (whole entry, looked up): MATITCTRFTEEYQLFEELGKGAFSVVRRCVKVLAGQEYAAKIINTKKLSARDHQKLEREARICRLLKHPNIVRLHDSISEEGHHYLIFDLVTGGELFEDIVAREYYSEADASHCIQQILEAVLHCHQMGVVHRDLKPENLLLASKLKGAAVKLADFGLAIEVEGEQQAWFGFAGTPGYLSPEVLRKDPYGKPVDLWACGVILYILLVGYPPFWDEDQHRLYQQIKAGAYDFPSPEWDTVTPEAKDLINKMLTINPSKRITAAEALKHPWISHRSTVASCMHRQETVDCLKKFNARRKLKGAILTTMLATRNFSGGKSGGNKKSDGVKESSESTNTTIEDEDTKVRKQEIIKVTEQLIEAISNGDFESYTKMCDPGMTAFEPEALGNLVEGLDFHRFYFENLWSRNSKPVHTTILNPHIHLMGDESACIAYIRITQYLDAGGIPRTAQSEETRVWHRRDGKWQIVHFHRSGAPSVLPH
Effect on: enzyme activity
Mode: inhibitor
Tested at: 10 µM
Quantity: inhibition
O=C(O)CNC(=O)Cc1ccccc1: -21%
CCOC(=O)Nc1ccc(NCc2ccc(F)cc2)nc1N: 2%
CCCC[C@H](CC)COC(=O)/C=C/c1ccc(OC)cc1: 11%
Oc1cc(O)c2c(c1)OC(c1ccc(O)c(O)c1)C(O)C2O (centres unmarked): 18%
C=C1C[C@@]23CC[C@H]4[C@@](C)(CCC[C@@]4(C)C(=O)O)[C@@H]2CC[C@@H]1C3: -29%
CCCCCCCCCCCCCCCCCC(=O)NCCO: -25%
O=[N+]([O-])c1cncn1CCN1CCOCC1: -7%
C[C@@H]1O[C@@H](O[C@H]2[C@H](O[C@H]3CC[C@@]4(C)[C@@H](CC[C@]5(C)[C@@H]4CC=C4[C@@H]6CC(C)(C)CC[C@]6(C(=O)O[C@@H]6O[C@H](CO[C@@H]7O[C@H](CO)[C@@H](O)[C@H](O)[C@H]7O)[C@@H](O)[C@H](O)[C@H]6O)CC[C@]45C)[C@]3(C)CO)OC[C@H](O)[C@@H]2O)[C@H](O)[C@H](O)[C@H]1O: 14%
O=C(O)c1cc(-c2ccc(F)cc2F)ccc1O: -1%
O=C1C[C@@H](c2ccc(O)c(O)c2)Oc2cc(O)cc(O)c21: -7%
O=C[C@H](O)[C@@H](O)[C@@H](CO)O[C@@H]1OC[C@@H](O[C@@H]2OC[C@@H](O[C@@H]3OC[C@@H](O[C@@H]4OC[C@@H](O)[C@H](O)[C@H]4O)[C@H](O)[C@H]3O)[C@H](O)[C@H]2O)[C@H](O)[C@H]1O: -33%

Excerpt of the above (set 4):
O=C(O)CNC(=O)Cc1ccccc1: -21%
CCOC(=O)Nc1ccc(NCc2ccc(F)cc2)nc1N: 2%
CCCC[C@H](CC)COC(=O)/C=C/c1ccc(OC)cc1: 11%
Oc1cc(O)c2c(c1)OC(c1ccc(O)c(O)c1)C(O)C2O (centres unmarked): 18%
C=C1C[C@@]23CC[C@H]4[C@@](C)(CCC[C@@]4(C)C(=O)O)[C@@H]2CC[C@@H]1C3: -29%
CCCCCCCCCCCCCCCCCC(=O)NCCO: -25%
O=[N+]([O-])c1cncn1CCN1CCOCC1: -7%
C[C@@H]1O[C@@H](O[C@H]2[C@H](O[C@H]3CC[C@@]4(C)[C@@H](CC[C@]5(C)[C@@H]4CC=C4[C@@H]6CC(C)(C)CC[C@]6(C(=O)O[C@@H]6O[C@H](CO[C@@H]7O[C@H](CO)[C@@H](O)[C@H](O)[C@H]7O)[C@@H](O)[C@H](O)[C@H]6O)CC[C@]45C)[C@]3(C)CO)OC[C@H](O)[C@@H]2O)[C@H](O)[C@H](O)[C@H]1O: 14%
O=C(O)c1cc(-c2ccc(F)cc2F)ccc1O: -1%
